Experimental data pooled from the literature.
Each numbered part is a random draw from the data of one study; scales do not carry over between parts.
Chain of UniProt P08172 (whole entry, looked up): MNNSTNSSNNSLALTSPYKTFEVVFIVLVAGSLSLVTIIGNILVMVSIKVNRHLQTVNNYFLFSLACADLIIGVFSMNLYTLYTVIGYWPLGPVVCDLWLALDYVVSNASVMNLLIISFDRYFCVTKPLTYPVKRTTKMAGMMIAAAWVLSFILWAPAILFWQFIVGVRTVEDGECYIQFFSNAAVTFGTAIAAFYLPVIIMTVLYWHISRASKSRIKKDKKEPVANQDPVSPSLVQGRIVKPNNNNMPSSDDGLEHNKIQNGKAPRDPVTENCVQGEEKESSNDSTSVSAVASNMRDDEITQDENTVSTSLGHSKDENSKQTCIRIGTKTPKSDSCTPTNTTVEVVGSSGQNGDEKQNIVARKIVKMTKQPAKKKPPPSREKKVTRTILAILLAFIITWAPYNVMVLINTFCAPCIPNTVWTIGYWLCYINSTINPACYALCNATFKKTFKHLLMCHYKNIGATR
Chain of UniProt P34969 (whole entry, looked up): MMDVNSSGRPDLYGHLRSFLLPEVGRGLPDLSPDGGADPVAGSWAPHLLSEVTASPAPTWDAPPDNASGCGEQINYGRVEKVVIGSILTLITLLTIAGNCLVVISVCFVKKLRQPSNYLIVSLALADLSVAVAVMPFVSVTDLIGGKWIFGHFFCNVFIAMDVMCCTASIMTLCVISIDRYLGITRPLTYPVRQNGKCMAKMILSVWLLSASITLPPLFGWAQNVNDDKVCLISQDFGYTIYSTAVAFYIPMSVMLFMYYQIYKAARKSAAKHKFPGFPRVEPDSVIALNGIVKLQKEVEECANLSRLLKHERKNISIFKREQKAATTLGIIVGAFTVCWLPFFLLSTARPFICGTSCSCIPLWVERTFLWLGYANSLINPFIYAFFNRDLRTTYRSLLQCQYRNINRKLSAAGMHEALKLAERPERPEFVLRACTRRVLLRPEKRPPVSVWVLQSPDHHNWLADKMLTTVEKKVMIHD
Chain of UniProt Q99720 (whole entry, looked up): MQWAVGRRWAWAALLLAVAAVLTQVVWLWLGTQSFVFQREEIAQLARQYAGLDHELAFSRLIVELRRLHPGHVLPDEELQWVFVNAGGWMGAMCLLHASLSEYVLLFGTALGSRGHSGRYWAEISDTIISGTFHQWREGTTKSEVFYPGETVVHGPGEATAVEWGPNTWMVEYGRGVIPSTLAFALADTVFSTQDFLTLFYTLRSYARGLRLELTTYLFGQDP
Chain of UniProt P46098 (whole entry, looked up): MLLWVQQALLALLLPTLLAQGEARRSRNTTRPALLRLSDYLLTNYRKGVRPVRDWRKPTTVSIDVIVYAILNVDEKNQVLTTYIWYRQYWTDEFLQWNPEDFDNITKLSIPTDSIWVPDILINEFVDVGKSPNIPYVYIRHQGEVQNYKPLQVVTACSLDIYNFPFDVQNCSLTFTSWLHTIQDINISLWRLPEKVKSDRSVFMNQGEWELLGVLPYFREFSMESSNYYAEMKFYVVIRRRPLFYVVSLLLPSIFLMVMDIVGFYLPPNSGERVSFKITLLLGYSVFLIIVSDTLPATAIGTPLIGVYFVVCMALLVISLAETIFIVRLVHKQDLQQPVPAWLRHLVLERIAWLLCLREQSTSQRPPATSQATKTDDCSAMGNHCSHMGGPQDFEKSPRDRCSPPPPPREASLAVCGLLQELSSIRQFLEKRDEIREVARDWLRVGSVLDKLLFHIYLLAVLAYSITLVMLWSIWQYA
Chain of UniProt P21917 (whole entry, looked up): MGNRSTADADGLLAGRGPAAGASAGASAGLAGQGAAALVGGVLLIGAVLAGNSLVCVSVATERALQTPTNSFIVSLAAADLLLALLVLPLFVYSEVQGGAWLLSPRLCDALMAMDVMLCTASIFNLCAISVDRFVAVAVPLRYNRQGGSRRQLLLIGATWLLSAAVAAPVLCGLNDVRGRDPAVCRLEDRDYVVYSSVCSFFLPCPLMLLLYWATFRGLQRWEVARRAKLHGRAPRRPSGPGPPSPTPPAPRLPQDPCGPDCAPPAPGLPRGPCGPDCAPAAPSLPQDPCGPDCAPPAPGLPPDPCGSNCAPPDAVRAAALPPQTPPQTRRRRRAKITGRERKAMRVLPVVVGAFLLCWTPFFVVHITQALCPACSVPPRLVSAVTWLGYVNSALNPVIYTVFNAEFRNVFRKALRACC
Chain of UniProt P35367 (whole entry, looked up): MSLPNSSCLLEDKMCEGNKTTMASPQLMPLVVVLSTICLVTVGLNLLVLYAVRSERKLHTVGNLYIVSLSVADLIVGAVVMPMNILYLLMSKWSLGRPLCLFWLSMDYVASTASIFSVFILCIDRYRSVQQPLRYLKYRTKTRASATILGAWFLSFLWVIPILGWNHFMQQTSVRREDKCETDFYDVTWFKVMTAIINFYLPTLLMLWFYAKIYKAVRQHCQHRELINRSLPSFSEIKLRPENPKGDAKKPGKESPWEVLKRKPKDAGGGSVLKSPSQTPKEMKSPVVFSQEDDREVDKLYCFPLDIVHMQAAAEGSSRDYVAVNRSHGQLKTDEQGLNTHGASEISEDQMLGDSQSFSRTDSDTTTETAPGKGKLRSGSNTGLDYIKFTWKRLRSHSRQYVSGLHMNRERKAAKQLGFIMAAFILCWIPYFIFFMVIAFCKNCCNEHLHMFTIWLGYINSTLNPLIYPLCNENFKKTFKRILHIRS
Chain of UniProt Q9H3N8 (whole entry, looked up): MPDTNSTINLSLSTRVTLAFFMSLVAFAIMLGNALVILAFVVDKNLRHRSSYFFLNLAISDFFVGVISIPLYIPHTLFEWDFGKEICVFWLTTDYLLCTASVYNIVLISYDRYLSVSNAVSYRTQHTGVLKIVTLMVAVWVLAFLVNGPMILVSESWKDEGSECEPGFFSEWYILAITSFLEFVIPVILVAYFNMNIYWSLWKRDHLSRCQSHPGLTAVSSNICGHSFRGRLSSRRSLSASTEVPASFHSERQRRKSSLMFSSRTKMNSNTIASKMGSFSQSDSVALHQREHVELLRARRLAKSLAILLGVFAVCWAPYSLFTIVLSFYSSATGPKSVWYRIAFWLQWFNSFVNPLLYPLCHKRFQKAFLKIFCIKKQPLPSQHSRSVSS
Chain of UniProt P07550 (whole entry, looked up): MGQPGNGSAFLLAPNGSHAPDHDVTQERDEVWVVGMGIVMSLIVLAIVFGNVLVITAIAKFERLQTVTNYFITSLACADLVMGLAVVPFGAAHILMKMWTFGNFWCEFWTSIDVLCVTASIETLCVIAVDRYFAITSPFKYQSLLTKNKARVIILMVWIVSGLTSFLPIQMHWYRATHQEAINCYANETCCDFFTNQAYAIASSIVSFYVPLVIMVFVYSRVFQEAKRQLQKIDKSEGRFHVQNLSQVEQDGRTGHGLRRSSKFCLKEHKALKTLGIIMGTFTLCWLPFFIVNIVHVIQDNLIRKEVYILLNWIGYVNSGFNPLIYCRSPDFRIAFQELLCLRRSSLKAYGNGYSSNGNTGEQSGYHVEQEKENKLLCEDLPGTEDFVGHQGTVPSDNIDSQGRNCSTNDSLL
Chain of UniProt P08912 (whole entry, looked up): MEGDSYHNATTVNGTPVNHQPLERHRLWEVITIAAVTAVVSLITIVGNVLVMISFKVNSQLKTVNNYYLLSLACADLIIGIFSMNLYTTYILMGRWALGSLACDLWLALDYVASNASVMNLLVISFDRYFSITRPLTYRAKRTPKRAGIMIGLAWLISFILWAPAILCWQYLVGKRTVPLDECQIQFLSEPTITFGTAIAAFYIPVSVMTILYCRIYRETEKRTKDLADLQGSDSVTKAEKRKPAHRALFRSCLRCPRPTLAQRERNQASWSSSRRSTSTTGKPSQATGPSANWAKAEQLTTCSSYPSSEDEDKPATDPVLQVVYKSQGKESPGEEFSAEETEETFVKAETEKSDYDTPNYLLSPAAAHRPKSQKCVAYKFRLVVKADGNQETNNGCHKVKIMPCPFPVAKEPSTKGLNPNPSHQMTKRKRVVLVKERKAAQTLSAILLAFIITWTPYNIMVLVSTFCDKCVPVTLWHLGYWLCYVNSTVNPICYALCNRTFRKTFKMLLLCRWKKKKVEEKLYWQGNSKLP

Sample 1 — species: human; matrix: microsomes or S9; concentration: 2 µM; time: 0.5 h; endpoint: remaining compound
O=C(Cn1nnc(-c2ccc(F)cc2)n1)N[C@H]1C[C@@H]2OCC[C@H]12: 79.9%
Cc1c(CC(=O)N2CCN(C(=O)C3COc4ccccc4O3)CC2)c(=O)oc2cc(O)c(Cl)cc12 (stereo not shown): 80.6%
O=C(c1ncccn1)N1C2CCC1Cn1c(nnc1-c1ccccc1)C2 (stereo not shown): > 100%
Cc1cc(CC(C)n2ccnc2-c2ccc(C)o2)[nH]n1 (stereo not shown): 36.7%
CNC[C@@H]1C[C@H](F)CN1C(=O)Cc1n[nH]c2ccccc12: > 100%
Fc1ccc(-n2ccc(CN3CCC(Nc4cccnn4)CC3)n2)c(F)c1: 83.8%
CC1=C(C(=O)OC(C)C)C(c2ccc(F)cc2)N2N=CNC2=N1 (stereo not shown): 49.5%
C/C(=C\c1c[nH]c(-c2ccccc2)n1)c1cnccn1: 1.38%

Sample 2 — concentration: 10 µM; endpoint: inhibition
Structure (SMILES): O=C(NCc1ncc(C(F)(F)F)cc1Cl)c1ccc2c(c1)C1(CCS(=O)(=O)CC1)[C@H](C1CC1)N2S(=O)(=O)c1ccc(F)cc1
Histamine H4 receptor (HRH4, Homo sapiens, UniProt Q9H3N8); ligand displacement: -9.53%
Muscarinic acetylcholine receptor M2 (CHRM2, Homo sapiens, UniProt P08172); ligand displacement: 8.38%
Histamine H1 receptor (HRH1, Homo sapiens, UniProt P35367); ligand displacement: 24.6%
D(4) dopamine receptor (DRD4, Homo sapiens, UniProt P21917); ligand displacement: 1.57%
Beta-2 adrenergic receptor (ADRB2, Homo sapiens, UniProt P07550); ligand displacement: -16.8%
5-hydroxytryptamine receptor 7 (HTR7, Homo sapiens, UniProt P34969); ligand displacement: -8.16%
Sigma non-opioid intracellular receptor 1 (SIGMAR1, Homo sapiens, UniProt Q99720); ligand displacement: 17.8%
Muscarinic acetylcholine receptor M5 (CHRM5, Homo sapiens, UniProt P08912); ligand displacement: -6.43%
5-hydroxytryptamine receptor 3A (HTR3A, Homo sapiens, UniProt P46098); cell-free assay: 1.44%

Sample 3 — cell line: 451Lu; endpoint: IC50
CCOC(=O)C1=C(COCCN)NC(C)=C(C(=O)OC)C1c1ccccc1Cl (stereo not shown): 20.8 µM
CC(CN1c2ccccc2Sc2ccccc21)N(C)C (stereo not shown): 57.9 µM
CC(NCCC(c1ccccc1)c1ccccc1)c1ccccc1 (stereo not shown): 37 µM
CCN(CC)CCCC(C)Nc1c2ccc(Cl)cc2nc2ccc(OC)cc12 (stereo not shown): 44.2 µM
CN(C)CCCN1c2ccccc2Sc2ccc(C(F)(F)F)cc21: 37.4 µM
CN(C)CCC=C1c2ccccc2C=Cc2ccccc21: 66.9 µM
Fc1ccc([C@@H]2CCNC[C@H]2COc2ccc3c(c2)OCO3)cc1: 24.3 µM
CC(C)(C)c1ccc(C(O)CCCN2CCC(C(O)(c3ccccc3)c3ccccc3)CC2)cc1 (stereo not shown): 11.8 µM
CN(C)CCCN1c2ccccc2Sc2ccccc21: 58.7 µM
c1cc(CN2CCCCC2)cc(OCCCNc2nc3ccccc3s2)c1: 50.1 µM

Sample 4 — effect on: enzyme activity; action: inhibitor; concentration: 0.5 µM; relative to: control; endpoint: remaining activity
Target: Serine/threonine-protein kinase Nek9 (NEK9, Homo sapiens, UniProt Q8TD19)
Chain of UniProt Q8TD19 (whole entry, looked up): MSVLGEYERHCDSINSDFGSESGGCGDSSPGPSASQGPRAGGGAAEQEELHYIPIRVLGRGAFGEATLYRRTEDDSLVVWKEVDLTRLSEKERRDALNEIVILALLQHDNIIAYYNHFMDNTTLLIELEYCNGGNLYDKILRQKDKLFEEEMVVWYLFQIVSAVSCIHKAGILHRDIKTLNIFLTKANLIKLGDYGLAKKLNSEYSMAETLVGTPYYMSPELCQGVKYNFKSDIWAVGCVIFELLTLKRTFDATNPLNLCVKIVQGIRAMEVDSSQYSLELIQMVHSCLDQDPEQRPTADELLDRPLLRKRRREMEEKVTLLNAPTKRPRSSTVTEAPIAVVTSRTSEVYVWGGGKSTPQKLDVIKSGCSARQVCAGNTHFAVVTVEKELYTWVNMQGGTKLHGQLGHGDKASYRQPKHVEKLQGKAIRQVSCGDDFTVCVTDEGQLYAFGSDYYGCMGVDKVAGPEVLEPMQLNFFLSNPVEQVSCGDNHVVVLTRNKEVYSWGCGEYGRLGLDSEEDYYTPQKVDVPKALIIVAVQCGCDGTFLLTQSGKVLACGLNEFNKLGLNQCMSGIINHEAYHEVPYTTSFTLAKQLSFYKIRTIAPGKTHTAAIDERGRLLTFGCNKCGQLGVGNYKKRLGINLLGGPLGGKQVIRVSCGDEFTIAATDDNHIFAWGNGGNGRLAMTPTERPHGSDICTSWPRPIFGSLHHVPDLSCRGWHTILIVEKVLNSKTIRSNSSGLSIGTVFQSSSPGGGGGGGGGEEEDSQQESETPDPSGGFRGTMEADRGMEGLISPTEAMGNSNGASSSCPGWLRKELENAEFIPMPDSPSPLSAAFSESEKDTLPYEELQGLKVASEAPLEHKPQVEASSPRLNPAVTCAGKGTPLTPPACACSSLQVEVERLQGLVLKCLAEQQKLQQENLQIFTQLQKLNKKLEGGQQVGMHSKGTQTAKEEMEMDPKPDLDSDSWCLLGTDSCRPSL
Cn1c2ccccc2c2c3c(c4c5ccccc5n(CCC#N)c4c21)CNC3=O: 96.9%
Oc1ccc(-c2nc(-c3ccncc3)c(-c3ccc(F)cc3)[nH]2)cc1: 99.4%
CO[C@H]1C[C@@H]2CC[C@@H](C)[C@@](O)(O2)C(=O)C(=O)N2CCCC[C@H]2C(=O)O[C@H]([C@H](C)C[C@@H]2CC[C@@H](O)[C@H](OC)C2)CC(=O)[C@H](C)/C=C(\C)[C@@H](O)[C@@H](OC)C(=O)[C@H](C)C[C@H](C)/C=C/C=C/C=C/1C: 98.2%
OCC(O)CCON=C1C(c2c(O)[nH]c3ccccc23)=Nc2ccccc21 (stereo not shown): 73.6%
COc1ccc(OC)c2c(=S)c3ccccc3[nH]c12: 95.8%
CN(C)c1ccc(C=C2C(=O)Nc3ccccc32)cc1: 99.8%
Cc1ccc(Nc2nccc(N(C)c3ccc4c(C)n(C)nc4c3)n2)cc1S(N)(=O)=O: 95.8%
CCOC(=O)c1c(C)[nH]c(/C=C2\C(=O)Nc3ccccc32)c1C: 80.8%
Cc1ccc(NC(=O)c2ccc(CN3CCN(C)CC3)cc2)cc1Nc1nc(-c2cccnc2)cs1: 98.6%
COc1ccc(CNC(=O)Nc2ncc([N+](=O)[O-])s2)cc1: 89.4%
O=C(CCCc1ccc(-c2ccccc2F)cc1)Nc1ccc(O)cc1: 92.7%
Nc1[nH]nc2nc3ccccc3nc12: 98.5%
O=C(Nc1cccc(Nc2cc(Nc3cccc(C(F)(F)F)c3)ncn2)c1)C1CC1: 101%
O=C(O)c1ccc2c3c1cccc3c(=O)n1c3ccccc3nc21: 94.1%
COc1cc2ncnc(Nc3ccc(Oc4ccccc4)cc3)c2cc1OC: 97.8%
C#Cc1cccc(Nc2ncnc3cc(OCCOC)c(OCCOC)cc23)c1: 99.5%

Some of these lines once more (sample 2):
5-hydroxytryptamine receptor 7 (HTR7, Homo sapiens, UniProt P34969); ligand displacement: -8.16%
Sigma non-opioid intracellular receptor 1 (SIGMAR1, Homo sapiens, UniProt Q99720); ligand displacement: 17.8%
Muscarinic acetylcholine receptor M5 (CHRM5, Homo sapiens, UniProt P08912); ligand displacement: -6.43%
5-hydroxytryptamine receptor 3A (HTR3A, Homo sapiens, UniProt P46098); cell-free assay: 1.44%
